Assay results collected from several papers.
± gives the spread as reported.
Organism: Cryptosporidium parvum
Cell line: HCT-8

For `C#CC(C)(C)NC(=O)c1cc2c(Cl)cc(Cl)cc2[nH]1`, the inhibition was over 60% (parasite growth, imaging; 11 µM, 72 h, intracellular).
`CCN1CCN(C(=O)c2ccc(-n3nc(-c4cccnc4)c4c3-c3sc(NC(C)=O)nc3CC4)cc2)CC1` has an EC50 of 20 nM (parasite growth, immunofluorescence microscopy; Iowa; 48 h post infection, compound added at 3 h).
For `CCOC(=O)CN(C(=O)c1ccn2ncc(-c3ccc(C(=O)NC)cc3)c2c1)c1ccc(Cl)cc1`, the EC50 was 71 ± 16 nM (cytopathic effect; 48 h).
`CCCc1nn(C)c2c(=O)[nH]c(-c3cc(S(=O)(=O)N4CCN(C)CC4)ccc3OCC)nc12` gave an EC50 of over 50000 nM (parasite growth, immunofluorescence microscopy; Iowa; 48 h post infection, compound added at 3 h).
`N#Cc1cccc2cc[nH]c12` has an EC90 of 500 µM (parasite growth; 24 h, intracellular).
`CC(C)=CCC/C(C)=C\COC(=O)NC(=O)C12CC3CC(CC(C3)C1)C2` — result for “lowest effective concentration”: 15 µM (parasite proliferation, immunofluorescence; baseline: infected untreated).
With `CC(C)(NC(=O)c1cc2c(F)cc(F)cc2[nH]1)c1cn(C23CC4CC(CC(C4)C2)C3)nn1` the inhibition was about 30% (parasite growth, imaging; 11 µM, 72 h, intracellular).
The EC50 of `O=C(Cc1ccc(Cl)cc1)N1CCN(c2ccc3nncn3n2)CC1` is reported as 880 nM (high-content microscopy).
`COC(=O)c1cc(Cl)ccc1N(C)C(=O)c1ccn2ncc(-c3ccc(C(N)=O)cc3)c2c1` gave an EC50 of 39 ± 8 nM (cytopathic effect; 48 h).
With `O=C(Cc1ccc(F)cc1)N1CCN(c2ccc3nncn3n2)CC1` the EC50 was 1200 nM (high-content microscopy).
With `CNC(=O)c1ccc(-c2cnn3ccc(C(=O)N(CC(=O)O)c4ccc(Cl)cc4)cc23)cc1` the EC50 was over 20000 nM (cytopathic effect; 48 h).

For quick reference, copied from above:
For `CCOC(=O)CN(C(=O)c1ccn2ncc(-c3ccc(C(=O)NC)cc3)c2c1)c1ccc(Cl)cc1`, the EC50 was 71 ± 16 nM (cytopathic effect; 48 h).
